Experimental data gathered from unrelated publications.
Every numbered part comes from another study and shows a few of its results, in no order.

Block 1
Target: Interferon regulatory factor 7, full length, phosphomimetic (IRF7, Homo sapiens, UniProt Q92985, residues 1-503, S101K/S471D/S472D/S475D/S476D/S477D/S483D/S484D/S487D)
Sequence of UniProt Q92985 (whole entry, unmodified, looked up): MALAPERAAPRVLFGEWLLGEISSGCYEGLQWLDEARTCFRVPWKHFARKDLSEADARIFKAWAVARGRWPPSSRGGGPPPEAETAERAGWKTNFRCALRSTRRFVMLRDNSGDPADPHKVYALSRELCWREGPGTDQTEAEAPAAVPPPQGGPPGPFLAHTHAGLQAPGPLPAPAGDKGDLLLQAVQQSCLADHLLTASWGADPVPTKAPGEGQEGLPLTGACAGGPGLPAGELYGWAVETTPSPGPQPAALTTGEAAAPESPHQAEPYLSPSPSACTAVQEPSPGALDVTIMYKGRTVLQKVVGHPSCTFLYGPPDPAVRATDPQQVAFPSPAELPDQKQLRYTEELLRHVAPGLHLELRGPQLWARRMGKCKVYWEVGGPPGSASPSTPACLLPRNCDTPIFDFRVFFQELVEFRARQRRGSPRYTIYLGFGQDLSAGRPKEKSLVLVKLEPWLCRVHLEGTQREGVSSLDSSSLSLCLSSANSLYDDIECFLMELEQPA
Method: protein-binding microarray
Molecule type: double-stranded DNA, one strand shown
Medium: in vitro
Concentration: 250 nM
Notes: 60-bp whole probe
Together with: salmon DNA 0.4 mg/ml
Relative to: random background probes
Direction: higher = stronger binding
Endpoint: log fluorescence
Shared flanks, not repeated: GCCTAGCAC … GTCTTGATTCGCTTGACGCTGCTG
AACGGTTCCCTTTTCCTGACGTGCTAG: 3.24 z-score
TTAGGTTTCGAGTATCGGTTAGTGCTA: 6.51 z-score
TTAGATTTCTGACTGGATTAGTGCTAG: -0.0963 z-score
TTAGGACTGGGGTCTGGGTTAGTGCTA: -0.503 z-score
TTAGATATCAGTCTCGATTAGTGCTAG: 1.61 z-score
GACGGTCTCGGTTTCGGGCCGTGCTAG: 6.09 z-score
GACGGACTGGGGTATCGGGAAGTGCTA: -0.707 z-score
TTAGAACTGGGGACTGGAGTAGTGCTA: -0.534 z-score
TCACATTTTCGTTTTGTACTGTGCTAG: 10.5 z-score
GACGGACTGGGTATCGGGAGGTGCTAG: -0.351 z-score

Block 2
Target: Histone acetyltransferase KAT6A, both winged helices, GST fusion (KAT6A, Homo sapiens, UniProt Q92794, residues 1-181)
Method: protein binding microarray
Molecule type: double-stranded DNA, one strand shown
Medium: in vitro
Concentration: not given
Notes: 8-mer, flanks averaged, mean of 2 arrays, mostly near background
Relative to: not given
Direction: higher = stronger binding
Endpoint: E-score
Target sequence (chain): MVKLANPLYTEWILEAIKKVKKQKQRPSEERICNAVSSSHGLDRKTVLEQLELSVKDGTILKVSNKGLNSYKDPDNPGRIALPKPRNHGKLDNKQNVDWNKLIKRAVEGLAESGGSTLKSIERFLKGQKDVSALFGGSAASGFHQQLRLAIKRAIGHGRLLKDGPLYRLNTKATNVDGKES
CTGTTGTA: 0.136
CAGTTGCA: -0.159
CCTTATCC: -0.0859
GCTATCCC: -0.000925
AGGCCGCG: 0.278
CTACACCC: -0.219
ACGTCTTC: 0.0416
CCATTTGA: -0.0181
ATGATGCG: 0.209

Block 3
Target: Sal-like protein 4, full length isoform A (SALL4, Homo sapiens, UniProt Q9UJQ4, residues 1-1053)
Sequence of UniProt Q9UJQ4 (whole entry, looked up): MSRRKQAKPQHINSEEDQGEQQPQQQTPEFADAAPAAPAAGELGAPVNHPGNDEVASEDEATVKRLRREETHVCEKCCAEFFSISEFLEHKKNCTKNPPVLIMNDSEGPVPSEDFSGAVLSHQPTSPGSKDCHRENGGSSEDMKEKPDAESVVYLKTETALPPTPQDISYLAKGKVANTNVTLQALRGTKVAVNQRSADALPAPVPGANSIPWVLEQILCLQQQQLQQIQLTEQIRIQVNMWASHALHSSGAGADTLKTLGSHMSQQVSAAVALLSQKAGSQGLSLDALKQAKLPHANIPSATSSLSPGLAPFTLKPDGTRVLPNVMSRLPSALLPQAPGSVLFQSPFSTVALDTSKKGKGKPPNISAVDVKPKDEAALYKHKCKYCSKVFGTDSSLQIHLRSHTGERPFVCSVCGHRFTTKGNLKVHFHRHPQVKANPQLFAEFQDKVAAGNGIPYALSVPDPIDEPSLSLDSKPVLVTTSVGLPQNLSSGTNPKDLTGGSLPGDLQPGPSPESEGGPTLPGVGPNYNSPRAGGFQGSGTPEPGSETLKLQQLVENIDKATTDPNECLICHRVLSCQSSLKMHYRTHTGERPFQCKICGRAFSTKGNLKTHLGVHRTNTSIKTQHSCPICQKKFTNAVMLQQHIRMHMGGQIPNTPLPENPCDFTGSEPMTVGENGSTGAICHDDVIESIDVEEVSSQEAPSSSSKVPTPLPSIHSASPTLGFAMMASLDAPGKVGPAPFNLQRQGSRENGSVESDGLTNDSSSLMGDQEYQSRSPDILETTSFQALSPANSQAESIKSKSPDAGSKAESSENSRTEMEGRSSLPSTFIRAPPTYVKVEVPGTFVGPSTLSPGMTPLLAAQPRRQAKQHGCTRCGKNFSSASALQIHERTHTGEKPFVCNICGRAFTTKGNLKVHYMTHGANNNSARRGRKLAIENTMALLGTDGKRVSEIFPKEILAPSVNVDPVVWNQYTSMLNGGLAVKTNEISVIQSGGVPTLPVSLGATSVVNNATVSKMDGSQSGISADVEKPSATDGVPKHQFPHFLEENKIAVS
Method: universal PBM
Molecule type: double-stranded DNA, one strand shown
Medium: in vitro
Concentration: 600 nM
Notes: 8-mer, flanks averaged, mean of replicates
Direction: higher = stronger binding
Endpoint: E-score
ACGGAAGA: -0.0512
ATATAAGG: 0.235
AACTGCCG: -0.132
TCCCCTAA: 0.00359
AGCCAAAC: -0.0798
AAAATGGC: 0.165
GAGATGCC: -0.218
ACCCTCGC: -0.215
TGCTAGCA: -0.0209
AGCACAAT: 0.0809
GTTTGGCA: -0.0123

Mixed results
PhoQ, residues 284 288 289 292 302 303 MLMVEA  fold induction (PhoP, residues 12 14 15 18 19 MHTVL (Escherichia coli, UniProt P23836); Sort-seq, measured: YFP reporter; E. coli; PhoQ-PhoP variant library, together with: 10 µM Mg2+; relative to: high Mg2+ state, higher = stronger signaling): 3.86

Repeated from above (block 3):
AGCCAAAC: -0.0798
ATATAAGG: 0.235
AGCACAAT: 0.0809
GTTTGGCA: -0.0123
